Published values collected from several papers.
Numbered parts are unrelated; each lists some results of a single study.

Block 1
Target: Interferon regulatory factor 7, full length, phosphomimetic (IRF7, Homo sapiens, UniProt Q92985, residues 1-503, S101K/S471D/S472D/S475D/S476D/S477D/S483D/S484D/S487D)
Chain of UniProt Q92985 (whole entry, unmodified, looked up): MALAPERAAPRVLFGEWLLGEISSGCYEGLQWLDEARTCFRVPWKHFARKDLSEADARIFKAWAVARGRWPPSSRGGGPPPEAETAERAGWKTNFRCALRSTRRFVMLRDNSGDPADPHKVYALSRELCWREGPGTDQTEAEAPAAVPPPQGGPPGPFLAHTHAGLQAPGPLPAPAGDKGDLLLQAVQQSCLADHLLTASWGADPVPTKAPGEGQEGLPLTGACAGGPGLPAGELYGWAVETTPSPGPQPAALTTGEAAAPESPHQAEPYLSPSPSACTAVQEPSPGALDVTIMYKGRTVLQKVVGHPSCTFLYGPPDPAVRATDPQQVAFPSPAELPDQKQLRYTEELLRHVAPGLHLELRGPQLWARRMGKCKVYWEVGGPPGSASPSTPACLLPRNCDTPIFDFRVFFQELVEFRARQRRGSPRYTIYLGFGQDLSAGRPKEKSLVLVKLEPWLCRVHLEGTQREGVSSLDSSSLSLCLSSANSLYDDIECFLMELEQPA
Method: protein-binding microarray
Molecule type: double-stranded DNA, one strand shown
Medium: in vitro
Tested at: 250 nM
Setting: 60-bp whole probe
Together with: salmon DNA 0.4 mg/ml
Baseline: random background probes
Direction: higher = stronger binding
Constant ends, left off below: GCCTAGCAC … GTCTTGATTCGCTTGACGCTGCTG
Oligonucleotide | log fluorescence [z-score]
GAGGGACTGGGGTTTCGGGACGTGCTA | 0.962
GACGGACTGCTACGGCTGACGTGCTAG | -0.736
TCACTTCTGCTTCCTCAGACTGTGCTA | 0.729
GGGTCTTGCAGTATGGAAAGGTGCTAG | 0.0787
TTAGGACTGCTTATCCCTTAGTGCTAG | -0.118
TTAGAACTGAGTTTAGATTAGTGCTAG | -0.0953
CTCTACATGTGTTTAAAAAGGTGCTAG | 0.0359
TCATCTTTCTCTGCTACCACTGTGCTA | 0.754
TTTTGCTTTCATTTATTTACGTGCTAG | 1.39
TACGGTATCGGGACTGGGGACGTGCTA | -0.127
TTAGGTATCGACTTTCGGATAGTGCTA | 2.2
TCAGATTTCAGTCTCGATTAGTGCTAG | 2.12
GCGCTTCTCGAGTGCCGGCTGGTGCTA | 0.312
TTCGGTCTCGGACTGGGTTAGTGCTAG | 0.299
ATAGGACTGGGGACTGGGTTAGTGCTA | -0.301
GACGATCTTAGTCTCGAGACGTGCTAG | 0.595

Block 2
Target: RING finger protein unkempt homolog, zinc fingers 1-6, GST-SBP tag (UNK, Homo sapiens, UniProt Q9C0B0, residues 30-357)
Chain of UniProt Q9C0B0 (30-357, looked up): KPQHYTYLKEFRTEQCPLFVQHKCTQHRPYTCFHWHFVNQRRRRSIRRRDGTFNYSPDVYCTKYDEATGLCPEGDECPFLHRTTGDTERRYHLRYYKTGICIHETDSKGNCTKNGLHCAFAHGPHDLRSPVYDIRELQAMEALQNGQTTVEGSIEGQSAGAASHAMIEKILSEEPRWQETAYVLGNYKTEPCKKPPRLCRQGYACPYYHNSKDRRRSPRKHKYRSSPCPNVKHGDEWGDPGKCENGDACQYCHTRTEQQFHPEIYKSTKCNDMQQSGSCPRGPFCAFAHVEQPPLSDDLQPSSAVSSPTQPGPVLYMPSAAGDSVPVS
Method: RNA Bind-n-Seq
Molecule type: RNA
Medium: in vitro
Tested at: not given
Setting: RNA with constant flanks, human-mouse chimeric sites, ends assumed
Baseline: input RNA pool
Direction: higher = stronger binding
Oligonucleotide | bound/input enrichment [ratio]
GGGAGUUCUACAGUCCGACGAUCGGAAGUACAUUAAUGGAAAUAGAUGGCGACAAAGGCAAGCAGGGCGGGCCCACCUACUACAUAGACACCAAUGCCCUCCGCGUGCCCAGGGAGAACAUGGAGGCCAUCUCACCACUCAAGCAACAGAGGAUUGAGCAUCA | 0.309
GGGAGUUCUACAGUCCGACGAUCUAAGUUAUUUUGUACAGCUUUGUAAAUUCUUAACAUUUUUAUAUUGCCAUGUUUAUUUUUUUUAGAUAAUUUGGUUCAUUAAGUACAAAACCAAAUAAAUGAACAUCUUUUUCAGUAAUUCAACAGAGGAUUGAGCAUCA | 3.5
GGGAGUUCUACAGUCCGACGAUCAACUUUGUGCAUCGGUUUCCCUUUGUAGCUGUUUCAAUUGGCUUCCUUGUGAAUAAAAAGAUAGAAUUUGGAAUUGUGUACAGCUGUGUGGAAGAUAAGAUGUACACCGGCAGGAAAGGGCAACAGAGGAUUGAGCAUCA | 4.56
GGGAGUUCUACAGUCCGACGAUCGCUCCUCCCCGCUCUGCAGCCUGGGGACACUGGGCUGGGACCAGAAUCCAGCUUUCUUUUAAAACUCUAUAUUUUUUUGUAUCCCGUUUUUUUCUUUUUUUUUUAAAUAGUGUAUUUUUUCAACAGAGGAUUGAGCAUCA | 60.1
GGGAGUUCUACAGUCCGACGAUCCCAAUUGUGGAGCAGUACUUGAAGACAAAGAAAAAUUCUAAUAAUUUAAUCAUGAAAUACAUUAGCUGCCGCCUGCUGACAUUUGUGAUUAUACUGUUAGCGUGUAUCUACCUGGGCUAUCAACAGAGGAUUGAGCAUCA | 0.4
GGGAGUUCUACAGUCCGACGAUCCUGUUUUGACAGCCACAAAUUCUUGGCAUGUAUUAAGGAAAAAAAAAAUCCCUGUUGAAGUAGUUUUUCCACCUAUCAGCACUGAGUAAAUGCCAUAAAUCCAUUGAAAUGGUCUAAAUACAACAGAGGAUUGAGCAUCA | 0.241
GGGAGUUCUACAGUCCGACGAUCCGCUGGCCCAAGCUGAUGGACUCUGAUGGCCUCCAUCAAGGUAUUAUGUGUGCCUUCUCUUAGUCCCUGUUUUCGGGAUGUUAUGAACAGUAUCAUGGUGGUUUGAAAGCACCAGCUUUGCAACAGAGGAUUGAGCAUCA | 0.103
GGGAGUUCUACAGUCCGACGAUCCUGUGUGGCUUACUAAAAUGGCUUGUAAAGAAGUUUUUCCAAGCUGUAACCCAUGCUGUUAUUAUAGUUGCUGCAAAAUGUUCUUCCUGAUAUUGAUGUUUGUUUACAACUGAAGGUCUCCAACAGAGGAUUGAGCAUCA | 0.108
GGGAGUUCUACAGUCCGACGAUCCUGGCACUCUAUCAGAUAUAUUAAUUUUUUAAUGUAGAUGUAAUUUUAAAAAUGAAUGGCUACUUUACACGUUUAACUAGGGUUUUACUACAUAUGUGUACAUAUGUAUAUAUAUAUAUACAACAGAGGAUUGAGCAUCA | 5.85
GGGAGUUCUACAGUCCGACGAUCUAAAUCCUGUGCCAGCACUUCGCUCAUAAAGUUUUAAAUUCUGGACCAAUAGUGUUUGUUUCCUGAUUAUUGUAUCCAAUACUUUGCCUAGUAUGUAACUCACUCUUACUGAUAAUAAAACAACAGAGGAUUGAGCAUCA | 2.25
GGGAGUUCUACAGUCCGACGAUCCCUCCCCCGGGCCACCCACCCCUCCCGGCUCCCCGCCGAGAUCCAGGUUUCUUCUUAUUUCAUAGCCAAUAAGAAAAAUGUUCUACGCACAUUUUGUCCUCAGUAAACGAGGGCCUCUGGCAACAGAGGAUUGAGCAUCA | 1.08

Block 3
Target: Sal-like protein 4, full length isoform A (SALL4, Homo sapiens, UniProt Q9UJQ4, residues 1-1053)
Chain of UniProt Q9UJQ4 (whole entry, looked up): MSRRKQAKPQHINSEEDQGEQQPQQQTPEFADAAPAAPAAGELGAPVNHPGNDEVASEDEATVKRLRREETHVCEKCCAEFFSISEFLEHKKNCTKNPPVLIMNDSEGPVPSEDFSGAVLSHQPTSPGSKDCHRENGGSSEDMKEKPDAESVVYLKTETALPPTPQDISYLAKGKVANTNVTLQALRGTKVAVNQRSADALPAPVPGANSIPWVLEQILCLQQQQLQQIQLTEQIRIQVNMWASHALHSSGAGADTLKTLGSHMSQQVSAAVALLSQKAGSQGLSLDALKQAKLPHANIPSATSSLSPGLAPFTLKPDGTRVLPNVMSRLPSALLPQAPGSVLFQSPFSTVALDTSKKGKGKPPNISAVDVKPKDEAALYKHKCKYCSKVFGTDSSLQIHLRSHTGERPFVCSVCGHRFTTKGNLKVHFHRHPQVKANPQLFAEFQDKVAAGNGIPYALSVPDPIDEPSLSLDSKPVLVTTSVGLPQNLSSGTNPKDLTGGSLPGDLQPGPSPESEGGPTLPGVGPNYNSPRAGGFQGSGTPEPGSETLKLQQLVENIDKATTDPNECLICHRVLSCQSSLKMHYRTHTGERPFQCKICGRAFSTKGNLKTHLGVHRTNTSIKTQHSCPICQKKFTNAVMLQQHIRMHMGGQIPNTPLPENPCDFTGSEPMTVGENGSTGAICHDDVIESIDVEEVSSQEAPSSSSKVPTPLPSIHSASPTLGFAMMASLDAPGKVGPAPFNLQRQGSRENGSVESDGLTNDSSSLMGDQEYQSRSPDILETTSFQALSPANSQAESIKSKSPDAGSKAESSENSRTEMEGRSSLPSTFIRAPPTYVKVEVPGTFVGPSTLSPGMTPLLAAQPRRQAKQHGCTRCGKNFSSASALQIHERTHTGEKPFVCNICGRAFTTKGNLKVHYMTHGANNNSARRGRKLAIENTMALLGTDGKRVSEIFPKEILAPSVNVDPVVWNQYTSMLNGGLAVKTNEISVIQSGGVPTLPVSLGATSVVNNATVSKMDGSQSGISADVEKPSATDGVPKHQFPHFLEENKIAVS
Method: universal PBM
Molecule type: double-stranded DNA, one strand shown
Medium: in vitro
Tested at: 600 nM
Setting: 8-mer, flanks averaged, mean of replicates
Direction: higher = stronger binding
Oligonucleotide | E-score
CAGATGGA | 0.0351
CAAGCTAA | -0.19
ACACTCAC | 0.0702
CCTACAAG | 0.0147
CCGCGACA | -0.265
CCCTTCCC | -0.267
ACTCCGTC | -0.0849
ATCCGAAA | 0.0455
CTCGCATC | -0.177
CAACACAA | 0.146
AAAGTGCA | 0.0742
AGACCCTG | -0.209
GCCACAGC | -0.283
GTAGTAAC | 0.00971
CGTCGTTC | 0.0261
AACGAGCG | -0.018
CTCTAATA | 0.318
ACAGTAGG | -0.0554
TCTGTGAA | 0.171

Block 4
Target: Centromere-binding protein 1, full length, His-tagged (CBF1, Saccharomyces cerevisiae, UniProt P17106, residues 1-351)
Chain of UniProt P17106 (whole entry, looked up): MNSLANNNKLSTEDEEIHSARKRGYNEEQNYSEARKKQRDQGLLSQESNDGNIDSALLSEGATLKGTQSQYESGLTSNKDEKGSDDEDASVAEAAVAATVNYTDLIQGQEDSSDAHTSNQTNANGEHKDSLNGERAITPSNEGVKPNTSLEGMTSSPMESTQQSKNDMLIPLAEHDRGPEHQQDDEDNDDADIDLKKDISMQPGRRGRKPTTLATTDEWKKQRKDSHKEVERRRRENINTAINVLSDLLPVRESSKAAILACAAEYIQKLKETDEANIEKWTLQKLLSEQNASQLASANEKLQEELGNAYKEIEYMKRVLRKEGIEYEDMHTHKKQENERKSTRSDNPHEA
Method: competition protein-binding microarray
Molecule type: double-stranded DNA, one strand shown
Medium: in vitro
Tested at: 2 µM
Setting: whole 60-bp probe, lowest competitor level
Together with: Pho4 competitor, 0.05 µM
Direction: higher = stronger binding
Oligonucleotide | fluorescence intensity [a.u.]
TGTGGGGACGTCGTTCACGTGCAAAAGTCGCCAAATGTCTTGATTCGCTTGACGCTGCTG | 1420
TTGAGCACTTGAGTATACGTGATGGAGCACACAAAGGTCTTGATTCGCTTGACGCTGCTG | 98.2
GTTCGGTCCAGAGACTTCGTGATGGGCCTGAGGTGGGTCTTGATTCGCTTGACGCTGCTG | 85.4
CTTCTGTAAATTTGTACCGTGGGTGGACGCGCCCCGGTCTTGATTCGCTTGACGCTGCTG | 77.4
AAAGCGGTAATTTGTCACGGAACTTCACATATCTATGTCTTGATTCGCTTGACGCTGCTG | 88.9
CATACCCAACCTTGAATAGTGGGTGAAGATATTTGTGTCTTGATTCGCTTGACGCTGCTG | 73
ACTTGTGGCTACATACTCGGTCAAGCCGCTTTGCTGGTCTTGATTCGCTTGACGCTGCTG | 58.9
CGATCGTAGCTTGGTGTCGTGATGGGGTTATTTCGGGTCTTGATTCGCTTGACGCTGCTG | 186
GTCGTTAATAGAAGCCATGTGGAAAGATAAAGGGGCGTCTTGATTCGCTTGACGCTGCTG | 107
AATATAACTCAACAAAACGTGACGGAAAATCAAATGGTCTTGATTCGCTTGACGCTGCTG | 924
CATACCCAACCTTGTCACGAGACTTAAGATATTTGTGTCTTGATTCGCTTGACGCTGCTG | 1240
CAGAAAGAATAGCGCCTCGTGGAATCTTGGCACCCAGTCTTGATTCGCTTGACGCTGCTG | 81.2
TGCGCAACAACTTTTCACGTGGCATTATGTCTAGAAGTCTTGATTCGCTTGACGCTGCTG | 877
CGCCAATCCAGCATGAGCATGACGCCGGTTCGAGAAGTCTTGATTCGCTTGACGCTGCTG | 67.6
GTTAAAAATTATCCTCAGGTGATGTTTTGGTAGAAGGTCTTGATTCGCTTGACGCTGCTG | 235
TGCGGGCGCGCTTTTCACGTTTTGATTAGCAACAGGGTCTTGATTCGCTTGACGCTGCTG | 104

Block 5
Target: RNA binding protein fox-1 homolog 2, RRM domain, GST-SBP tag (RBFOX2, Homo sapiens, UniProt O43251-10, residues 100-194)
Method: RNA Bind-n-Seq
Molecule type: RNA
Medium: in vitro
Tested at: 365 nM
Setting: natural RNA segment, single round, ends assumed
Baseline: no-protein control
Direction: higher = stronger binding
Residues (chain): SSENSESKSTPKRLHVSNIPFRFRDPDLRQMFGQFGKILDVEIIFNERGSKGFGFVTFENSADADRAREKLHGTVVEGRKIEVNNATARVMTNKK
Oligonucleotide | RBNS enrichment (R)
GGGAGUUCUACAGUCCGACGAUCGCUUGAAGAGACCCCCUCCCCCUUCCAACGAGCUUCCGGACUUGUCUGCACCCCCAGCAAGAAGGCGAGUUAGUUUUCUAGAGACUUGAAGGAGUCUCCCCCUUCCUGCAUGGAAUUCUCGGGUGCCAA | 0.705
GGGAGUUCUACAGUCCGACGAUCAUCACUAUAUUUAUUCAAGCUGUGAUUGUUUUCUUUCUCACUCAAAAAAGAAUUUUGUAUGUUGUGGCAUUUAAUCAUUUCAUGUUCAGUAACAAAUGAUAUUUUUGUUAUGGAAUUCUCGGGUGCCAA | 1.31
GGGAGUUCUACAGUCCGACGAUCACUUCUUAUUUCUCGUCCUGUCUCUUUGCAAAGUAUGGGCUUUUUUGUUUUUGUUUUUUAAGGGAAACGAAAUGGAAUUCGAAGGGACCUUUUCACUAACCCCACUUCUGUGGAAUUCUCGGGUGCCAA | 0.43
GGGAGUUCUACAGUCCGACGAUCCCCCGCCACCCCCAAAAAAAGGUUUAUUUCUGAGCAGCCAGGCAUGAUAAGUAAAGGCCCCUAGUCCUGCACAGGAGGCUGAGGCAGGAGAAUUGUUUAGUCCUGGAAUAUGGAAUUCUCGGGUGCCAA | 1.12
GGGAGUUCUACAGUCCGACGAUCGACAGAAAUUACCAUUUAGUUUCUUAAAUGUAAAAAAAGAAAACCCACAAAAGACUCAACAAAAUUAGACCACAAAAUUUGCAUUGUUCAUUGUAGCACUAUUGGUAAUAUGGAAUUCUCGGGUGCCAA | 1.02
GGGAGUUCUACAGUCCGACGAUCUGUAUUGAAUAUUAAGUGUCACUGAAGCAAUGUUUGUGUUGACUAGAAACGUAAGAUGACUUGUGUAGCACCUCUUUAUAAGCACACAGCUCAUCUUAAUAUUUUCCAUUUGGAAUUCUCGGGUGCCAA | 0.74
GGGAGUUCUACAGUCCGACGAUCCUGGUCUGCCAUUCGCCAGUGCAGGGAUCUGGCACGGACCAGAUGUGGCGAAUGGCAGCACAGCGCGGUGGCUGGGUCUGCACACUGGCCUCUGCAGCCAGAUUUCUAUAUGGAAUUCUCGGGUGCCAA | 0.48
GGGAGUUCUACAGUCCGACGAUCUGCUCCAGAUAAUCUUGUCCCUGCUCCUCACUUCCACAGGGGACAUUGUGAGGCCACUGGCAUGGAUGCUAUGCACCCCACCCUUUGCUGGCCAUAUUCCUCCUGUCCCCUGGAAUUCUCGGGUGCCAA | 0.326
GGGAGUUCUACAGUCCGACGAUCUAAAUUCAUUAUUUUUGUGACAGUAAUUUUGGUACUUGGAAGAGUUCAGAUGCCCAUCUUCUGCAGUUACCAAGGAAGAGAGAUUGUUCUGAAGUUACCCUCUGAAAAAUUGGAAUUCUCGGGUGCCAA | 0.469
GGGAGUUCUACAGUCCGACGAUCGGCAAGGGCUAUUUACCAGGGCUUAAAUGUUGUGUCUAGAAUUAAGUAUGGGCAUAAACUGGCUUCUGAAUCCCUUUCCAGAGUGUUGGAUCCAUUUCCCUGGUCUUGGCUGGAAUUCUCGGGUGCCAA | 0.263
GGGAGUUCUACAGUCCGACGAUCACAUCUCAAGGGACUUGCCCAGGACAUGGAACUGUGGCCUCCUUGACAAACCUAUCUCUUGGACUCAAGUUGGAUUGAUCAAGUUGAACCCUUUGAACCUGAUGUGACUUUGGAAUUCUCGGGUGCCAA | 0.301
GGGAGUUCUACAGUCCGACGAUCACUCUGAACCAGUGAACAUUUUGGAUGUUUCCGUGUUCUCCUGUGUCAUCUCUACUGGGCCAUAGGACCGGGCAAACCUACCUUAAAAUAGGCAGAGGAAAGUUUCAUGAUGGAAUUCUCGGGUGCCAA | 0.275

A few entries again (block 1):
Oligonucleotide | log fluorescence [z-score]
TCAGATTTCAGTCTCGATTAGTGCTAG | 2.12
TTTTGCTTTCATTTATTTACGTGCTAG | 1.39
CTCTACATGTGTTTAAAAAGGTGCTAG | 0.0359
TTCGGTCTCGGACTGGGTTAGTGCTAG | 0.299
GAGGGACTGGGGTTTCGGGACGTGCTA | 0.962
TTAGGTATCGACTTTCGGATAGTGCTA | 2.2
GACGATCTTAGTCTCGAGACGTGCTAG | 0.595
ATAGGACTGGGGACTGGGTTAGTGCTA | -0.301
